Assay results pooled from the literature.
Parts stem from different laboratories: compare values within a part only.
Sequence of UniProt Q14164 (whole entry, looked up): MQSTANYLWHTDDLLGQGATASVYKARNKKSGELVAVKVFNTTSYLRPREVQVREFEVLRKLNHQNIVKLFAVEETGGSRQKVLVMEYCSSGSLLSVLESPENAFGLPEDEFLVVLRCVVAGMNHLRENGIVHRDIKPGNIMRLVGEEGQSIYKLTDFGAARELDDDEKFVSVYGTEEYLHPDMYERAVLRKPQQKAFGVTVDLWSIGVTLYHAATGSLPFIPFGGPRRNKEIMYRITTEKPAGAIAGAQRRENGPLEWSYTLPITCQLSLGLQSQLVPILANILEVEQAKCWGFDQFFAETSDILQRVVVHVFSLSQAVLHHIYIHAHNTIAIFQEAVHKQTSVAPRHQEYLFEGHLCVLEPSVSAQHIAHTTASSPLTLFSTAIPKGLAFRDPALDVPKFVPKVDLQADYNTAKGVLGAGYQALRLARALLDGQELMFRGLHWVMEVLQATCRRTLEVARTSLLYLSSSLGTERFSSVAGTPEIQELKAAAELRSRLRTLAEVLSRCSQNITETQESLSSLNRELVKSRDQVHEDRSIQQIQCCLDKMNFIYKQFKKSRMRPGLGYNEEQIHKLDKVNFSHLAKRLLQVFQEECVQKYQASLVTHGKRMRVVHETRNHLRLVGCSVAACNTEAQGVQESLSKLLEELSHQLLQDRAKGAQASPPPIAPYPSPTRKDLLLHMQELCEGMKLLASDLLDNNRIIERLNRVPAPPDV
Sequence of UniProt P10721 (whole entry, unmodified, looked up): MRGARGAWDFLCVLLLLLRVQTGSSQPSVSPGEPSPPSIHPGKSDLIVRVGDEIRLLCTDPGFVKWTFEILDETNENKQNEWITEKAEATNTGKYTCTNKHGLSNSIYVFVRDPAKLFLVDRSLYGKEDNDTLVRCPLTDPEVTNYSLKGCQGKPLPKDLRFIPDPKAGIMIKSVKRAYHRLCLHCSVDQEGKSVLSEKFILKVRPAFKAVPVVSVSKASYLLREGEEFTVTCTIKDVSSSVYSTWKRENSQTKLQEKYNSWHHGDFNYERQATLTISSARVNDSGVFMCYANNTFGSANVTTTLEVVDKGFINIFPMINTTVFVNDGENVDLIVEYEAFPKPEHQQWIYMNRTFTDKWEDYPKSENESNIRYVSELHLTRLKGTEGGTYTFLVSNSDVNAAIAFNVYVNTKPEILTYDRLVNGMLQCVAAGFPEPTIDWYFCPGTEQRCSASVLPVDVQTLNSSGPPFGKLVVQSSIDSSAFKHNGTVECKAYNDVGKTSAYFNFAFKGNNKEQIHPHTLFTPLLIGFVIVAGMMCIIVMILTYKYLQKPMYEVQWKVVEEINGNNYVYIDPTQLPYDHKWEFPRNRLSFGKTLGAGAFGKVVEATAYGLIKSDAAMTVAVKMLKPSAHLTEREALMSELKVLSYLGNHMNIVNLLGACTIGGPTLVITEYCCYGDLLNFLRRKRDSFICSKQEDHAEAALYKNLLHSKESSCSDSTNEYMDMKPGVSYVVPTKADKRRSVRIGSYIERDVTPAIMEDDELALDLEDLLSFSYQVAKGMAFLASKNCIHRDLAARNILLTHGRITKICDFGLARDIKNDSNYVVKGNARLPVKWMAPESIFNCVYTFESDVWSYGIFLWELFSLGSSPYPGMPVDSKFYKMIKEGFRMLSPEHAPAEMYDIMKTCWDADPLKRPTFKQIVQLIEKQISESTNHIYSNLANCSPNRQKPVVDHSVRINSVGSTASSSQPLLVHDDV
Sequence of UniProt P21709 (whole entry, looked up): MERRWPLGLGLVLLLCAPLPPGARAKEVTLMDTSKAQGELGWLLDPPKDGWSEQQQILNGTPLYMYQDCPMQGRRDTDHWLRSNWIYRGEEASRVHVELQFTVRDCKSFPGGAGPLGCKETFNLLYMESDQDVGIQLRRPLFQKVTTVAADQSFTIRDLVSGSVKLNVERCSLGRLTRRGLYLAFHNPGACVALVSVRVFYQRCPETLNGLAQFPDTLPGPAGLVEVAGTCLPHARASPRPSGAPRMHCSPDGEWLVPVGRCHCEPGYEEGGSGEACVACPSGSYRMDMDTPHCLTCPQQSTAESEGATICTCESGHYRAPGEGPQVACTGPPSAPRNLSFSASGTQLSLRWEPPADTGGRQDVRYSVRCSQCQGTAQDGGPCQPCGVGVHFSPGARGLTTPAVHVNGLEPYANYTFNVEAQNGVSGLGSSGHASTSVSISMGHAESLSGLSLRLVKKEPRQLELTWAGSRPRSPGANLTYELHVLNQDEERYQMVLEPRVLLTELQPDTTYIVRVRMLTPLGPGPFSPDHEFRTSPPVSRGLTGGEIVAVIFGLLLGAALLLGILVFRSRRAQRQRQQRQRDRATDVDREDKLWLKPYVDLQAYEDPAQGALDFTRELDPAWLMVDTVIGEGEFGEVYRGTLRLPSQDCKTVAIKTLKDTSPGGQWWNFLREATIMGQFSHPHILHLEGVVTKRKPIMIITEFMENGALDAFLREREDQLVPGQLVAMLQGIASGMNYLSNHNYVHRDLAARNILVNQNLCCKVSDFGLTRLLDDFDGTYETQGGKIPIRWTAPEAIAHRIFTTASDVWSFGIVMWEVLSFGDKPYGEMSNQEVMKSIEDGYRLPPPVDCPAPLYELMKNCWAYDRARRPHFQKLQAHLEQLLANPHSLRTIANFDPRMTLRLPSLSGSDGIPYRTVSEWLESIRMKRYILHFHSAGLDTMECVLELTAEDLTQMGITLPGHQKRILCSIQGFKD
Sequence of UniProt Q96L34 (whole entry, looked up): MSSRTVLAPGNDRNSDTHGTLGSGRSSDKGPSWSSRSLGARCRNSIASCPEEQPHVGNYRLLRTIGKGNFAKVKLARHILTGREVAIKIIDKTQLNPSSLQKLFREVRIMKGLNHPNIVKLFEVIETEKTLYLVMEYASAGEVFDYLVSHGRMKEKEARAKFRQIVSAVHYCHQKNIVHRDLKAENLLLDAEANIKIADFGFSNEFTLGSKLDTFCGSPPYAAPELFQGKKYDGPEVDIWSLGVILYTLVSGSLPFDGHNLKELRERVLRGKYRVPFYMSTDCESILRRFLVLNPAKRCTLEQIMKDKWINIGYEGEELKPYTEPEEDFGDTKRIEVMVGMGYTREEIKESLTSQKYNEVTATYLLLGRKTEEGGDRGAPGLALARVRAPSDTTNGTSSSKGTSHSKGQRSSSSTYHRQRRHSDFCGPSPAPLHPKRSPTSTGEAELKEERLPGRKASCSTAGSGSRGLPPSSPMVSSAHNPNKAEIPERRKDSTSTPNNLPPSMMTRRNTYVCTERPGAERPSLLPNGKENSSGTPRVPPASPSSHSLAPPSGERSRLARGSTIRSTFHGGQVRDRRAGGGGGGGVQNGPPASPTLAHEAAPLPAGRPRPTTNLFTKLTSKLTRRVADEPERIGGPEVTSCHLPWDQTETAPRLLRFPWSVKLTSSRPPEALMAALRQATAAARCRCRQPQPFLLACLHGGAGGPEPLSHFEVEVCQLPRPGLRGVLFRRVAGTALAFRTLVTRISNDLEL
Sequence of UniProt Q00536 (whole entry, looked up): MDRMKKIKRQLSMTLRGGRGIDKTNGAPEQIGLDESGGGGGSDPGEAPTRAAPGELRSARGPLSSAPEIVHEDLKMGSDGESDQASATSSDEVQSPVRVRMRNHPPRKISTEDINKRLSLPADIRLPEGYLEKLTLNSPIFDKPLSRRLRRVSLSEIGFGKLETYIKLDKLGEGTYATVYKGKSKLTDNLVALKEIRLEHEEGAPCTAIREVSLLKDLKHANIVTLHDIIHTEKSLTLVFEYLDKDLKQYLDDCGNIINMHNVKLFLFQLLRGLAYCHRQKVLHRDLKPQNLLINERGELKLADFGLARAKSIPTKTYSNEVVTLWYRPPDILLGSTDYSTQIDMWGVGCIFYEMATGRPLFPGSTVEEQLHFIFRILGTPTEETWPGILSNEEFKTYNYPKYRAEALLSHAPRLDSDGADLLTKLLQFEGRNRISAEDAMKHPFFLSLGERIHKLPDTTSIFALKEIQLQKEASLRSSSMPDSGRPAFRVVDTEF
Sequence of UniProt P49760 (whole entry, looked up): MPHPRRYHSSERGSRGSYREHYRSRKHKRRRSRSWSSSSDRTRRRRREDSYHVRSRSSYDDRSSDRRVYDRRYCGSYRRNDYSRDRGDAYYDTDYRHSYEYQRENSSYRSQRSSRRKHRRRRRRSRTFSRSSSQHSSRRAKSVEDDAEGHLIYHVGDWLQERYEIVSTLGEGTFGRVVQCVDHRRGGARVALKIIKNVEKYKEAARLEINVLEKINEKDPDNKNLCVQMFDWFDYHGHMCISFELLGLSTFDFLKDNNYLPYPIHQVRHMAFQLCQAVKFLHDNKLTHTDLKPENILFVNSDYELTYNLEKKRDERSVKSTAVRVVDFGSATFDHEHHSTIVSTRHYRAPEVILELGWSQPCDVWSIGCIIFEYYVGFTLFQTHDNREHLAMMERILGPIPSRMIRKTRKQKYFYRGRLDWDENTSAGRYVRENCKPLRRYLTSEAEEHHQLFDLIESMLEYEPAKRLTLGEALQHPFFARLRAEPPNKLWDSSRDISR

Study 1
Organism: Sarcocystis neurona
Effect on: parasite growth
Tested at: 10 µM
Notes: second screen
Baseline: untreated
SMILES	log2 fold change
CC(COc1ccccc1Cc1ccccc1)N1CCCCC1.O=P(O)(O)O (stereo not drawn)	-0.19
CCCCC(=O)O[C@H]1CC[C@H]2[C@@H]3CCc4cc(O)ccc4[C@H]3CC[C@]12C	0.53
CCCc1nc(C)c2c(=O)[nH]c(-c3cc(S(=O)(=O)N4CCN(CC)CC4)ccc3OCC)nn12.O=C(O)CC(O)(CC(=O)O)C(=O)O	0.63
CC(=O)CCCCn1cnc2c1c(=O)n(C)c(=O)n2C	0.17
C[C@H]1C[C@H]2[C@@H]3CCC4=CC(=O)C=C[C@]4(C)[C@@]3(Cl)[C@@H](O)C[C@]2(C)[C@@]1(O)C(=O)CO	0.00845
C[C@]12CC[C@@H]3c4ccc(O)cc4CC[C@H]3[C@@H]1CC[C@@H]2O	0.78
Cl.NC[C@H](O)c1ccc(O)c(O)c1	0.45
CN1CCN(c2c(F)cc3c(=O)c(C(=O)O)cn4c3c2SCC4)CC1.Cl	0.32
C[N+]1(C)CCC(OC(=O)C(O)(c2ccccc2)C2CCCC2)C1.[Br-] (stereo not drawn)	0.04
CN1CCc2cc(Cl)c(O)cc2[C@@H](c2ccccc2)C1.Cl	0.64
OC[C@H]1O[C@@H](n2cnc3c(NC4CCCC4)nc(Cl)nc32)[C@H](O)[C@@H]1O	0.47

Study 2
Target: Calcium/calmodulin-dependent protein kinase type II subunit alpha (CAMK2A, Homo sapiens, UniProt Q9UQM7)
Sequence of UniProt Q9UQM7 (whole entry, looked up): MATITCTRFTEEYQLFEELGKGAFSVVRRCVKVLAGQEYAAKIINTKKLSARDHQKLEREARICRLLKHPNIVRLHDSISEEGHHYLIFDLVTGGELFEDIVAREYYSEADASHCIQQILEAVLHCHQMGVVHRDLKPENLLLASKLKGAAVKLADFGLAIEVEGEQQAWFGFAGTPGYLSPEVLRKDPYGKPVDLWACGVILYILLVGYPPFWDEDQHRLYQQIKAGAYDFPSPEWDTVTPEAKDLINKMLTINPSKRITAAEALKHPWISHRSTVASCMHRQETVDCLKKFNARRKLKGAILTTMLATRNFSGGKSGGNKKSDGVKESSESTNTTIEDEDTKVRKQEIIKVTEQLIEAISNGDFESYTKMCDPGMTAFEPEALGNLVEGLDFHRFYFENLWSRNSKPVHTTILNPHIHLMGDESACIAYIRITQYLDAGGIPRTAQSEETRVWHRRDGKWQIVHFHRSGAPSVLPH
Effect on: enzyme activity
Action: inhibitor
Tested at: 10 µM
SMILES	inhibition [%]
CC1CNC(=O)NC1=O (stereo not drawn)	2
C[C@@H]1CC[C@@]2(NC1)O[C@H]1C[C@H]3[C@@H]4CC=C5C[C@@H](O[C@@H]6O[C@H](CO)[C@@H](O[C@@H]7O[C@@H](C)[C@H](O)[C@@H](O)[C@H]7O)[C@H](O)[C@H]6O[C@@H]6O[C@@H](C)[C@H](O)[C@@H](O)[C@H]6O)CC[C@]5(C)[C@H]4CC[C@]3(C)[C@H]1[C@@H]2C	-11
Cc1cccc2c3c(ccc12)C(O)=C(C(C)CO)C(=O)C3=O (stereo not drawn)	-64
CC(=O)O[C@H]1C(=O)[C@@]2(C)[C@H]([C@H](OC(=O)c3ccccc3)[C@]3(O)C[C@H](OC(=O)[C@H](O)[C@@H](NC(=O)c4ccccc4)c4ccccc4)C(C)=C1C3(C)C)[C@]1(OC(C)=O)CO[C@@H]1C[C@@H]2O	3
CC1(C)CC[C@]2(C(=O)O[C@@H]3O[C@H](CO)[C@@H](O)[C@H](O)[C@H]3O)CC[C@]3(C)C(=CC[C@@H]4[C@@]5(C)CC[C@H](O[C@@H]6O[C@H](C(=O)O)[C@@H](O)[C@H](O)[C@H]6O[C@H]6OC[C@@H](O)[C@H](O)[C@H]6O)C(C)(C)[C@@H]5CC[C@]43C)[C@@H]2C1	2
C=C[C@@H]1C2=CCOC(=O)C2=CO[C@H]1O[C@@H]1O[C@H](CO[C@@H]2O[C@H](CO)[C@@H](O)[C@H](O)[C@H]2O)[C@@H](O)[C@H](O)[C@H]1O	13
CC[C@H](C)[C@@H]1NC(=O)[C@@H]2CCCN2C(=O)[C@@H]2CCCN2C(=O)[C@@H]2CCCN2C(=O)[C@H](CC(C)C)NC(=O)CNC(=O)CNC(=O)[C@H](Cc2ccccc2)NC1=O	25
CNC[C@@H]1CC[C@@H](N)[C@@H](O[C@H]2[C@H](O)[C@@H](O[C@H]3OC[C@](C)(O)[C@H](NC)[C@H]3O)[C@H](N)C[C@@H]2N)O1	-8
CC1(C)CC[C@]2(C(=O)O)CC[C@]3(C)C(=CC[C@@H]4[C@@]5(C)CC[C@H](O[C@@H]6O[C@H](C(=O)O)[C@@H](O)[C@H](O)[C@H]6O)C(C)(C)[C@@H]5CC[C@]43C)[C@@H]2C1	5
CCOC(=O)OC(C)OC(=O)[C@@H]1N2C(=O)[C@@H](NC(=O)[C@H](N)c3ccccc3)[C@H]2SC1(C)C (stereo partly drawn)	-7
CCCCC(C)CCC(=O)O (stereo not drawn)	29

Study 3
SMILES: O=C(Nc1cnn(-c2csc(C(=O)NC3COC3)c2)c1)Nc1ccccc1Cl
Tested at: 5 µM
target	effect on	method	baseline	remaining activity [%]
IKBKE (Homo sapiens, UniProt Q14164)	enzyme activity	–	untreated control	108
MARK4 (Homo sapiens, UniProt Q96L34)	enzyme activity	–	untreated control	101
PAK3 (Homo sapiens, UniProt O75914)	enzyme activity	–	untreated control	96.8
KIT (Homo sapiens, UniProt P10721)	enzyme activity	–	untreated control	88.3
Cyclin-dependent kinase 16, with cyclin Y (CDK16, Homo sapiens, UniProt Q00536)	kinase activity	kinase panel profiling	–	94.8
EPHA1 (Homo sapiens, UniProt P21709)	enzyme activity	–	untreated control	98
CSNK1E (Homo sapiens, UniProt P49674)	enzyme activity	–	untreated control	89

Study 4
Compound: Cc1cc(NC(=O)c2cccc(S(F)(F)(F)(F)F)c2)cc(-n2ccn3nc(-c4cccnc4)cc23)c1
Effect on: cell-free assay
Method: competition with immobilised ligand
Tested at: 1 µM
target	remaining binding [%]
VRK2 (Homo sapiens, UniProt Q86Y07)	100
CLK2 (Homo sapiens, UniProt P49760)	100
ERBB4 (Homo sapiens, UniProt Q15303)	98.1
Tyrosine-protein kinase JAK3, JH1 (JAK3, Homo sapiens, UniProt P52333)	96.9
RET (Homo sapiens, UniProt P07949, M918T)	100
PIK3C3 (Homo sapiens, UniProt Q8NEB9)	76.6
WNK4 (Homo sapiens, UniProt Q96J92)	100
ALK (Homo sapiens, UniProt Q9UM73, C1156Y)	100
EGFR (Homo sapiens, UniProt P00533, L858R/T790M)	97.6
MKNK1 (Homo sapiens, UniProt Q9BUB5)	100
LYN (Homo sapiens, UniProt P07948)	100
GAK (Homo sapiens, UniProt O14976)	100
FLT3 (Homo sapiens, UniProt P36888, D835V)	100
KIT (Homo sapiens, UniProt P10721, D816H)	73.1
CDK15 (Homo sapiens, UniProt Q96Q40)	59.9
BLK (Homo sapiens, UniProt P51451)	100
IKBKE (Homo sapiens, UniProt Q14164)	100
FLT3 (Homo sapiens, UniProt P36888)	100
RIPK4 (Homo sapiens, UniProt P57078)	34.1
Ribosomal protein S6 kinase alpha-3, C-terminal kinase domain (RPS6KA3, Homo sapiens, UniProt P51812)	89
MAP2K6 (Homo sapiens, UniProt P52564)	100
BMPR1A (Homo sapiens, UniProt P36894)	94.4
WEE2 (Homo sapiens, UniProt P0C1S8)	100
Tyrosine-protein kinase ABL1, phosphorylated (ABL1, Homo sapiens, UniProt P00519, Y253F)	100
CAMK1 (Homo sapiens, UniProt Q14012)	77.9

A few entries again (study 4):
target	remaining binding [%]
Tyrosine-protein kinase JAK3, JH1 (JAK3, Homo sapiens, UniProt P52333)	96.9
RIPK4 (Homo sapiens, UniProt P57078)	34.1
ALK (Homo sapiens, UniProt Q9UM73, C1156Y)	100
WEE2 (Homo sapiens, UniProt P0C1S8)	100
MAP2K6 (Homo sapiens, UniProt P52564)	100
